Results from different studies.
Numbered parts are unrelated; each lists some results of a single study.

Block 1 — technique: protein binding microarray; molecule type: double-stranded DNA, one strand shown; matrix: in vitro; tested at: not given; reference: not given; direction: higher = stronger binding
Target: Histone acetyltransferase KAT6A, both winged helices, GST fusion (KAT6A, Homo sapiens, UniProt Q92794, residues 1-181)
Notes: 8-mer, flanks averaged, mean of 2 arrays, mostly near background
Target sequence (chain): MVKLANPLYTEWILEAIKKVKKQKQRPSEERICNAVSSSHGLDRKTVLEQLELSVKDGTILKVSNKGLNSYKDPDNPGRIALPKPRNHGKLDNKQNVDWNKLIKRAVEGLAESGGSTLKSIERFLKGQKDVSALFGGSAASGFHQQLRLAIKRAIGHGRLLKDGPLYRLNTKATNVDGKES
| Oligonucleotide | E-score |
| --- | --- |
| CACAATAG | -0.0477 |
| GTAAATCA | -0.0368 |
| ATTAGTAG | -0.0819 |
| GGCAGCGA | 0.103 |

Block 2 — technique: RNAcompete; molecule type: RNA; matrix: in vitro; tested at: 20 nM; notes: 7-mer, probes averaged, single round; reference: mean of 7-mers; direction: higher = stronger binding
Target: PABPC1L2, full length, GST fusion (mouse, UniProt A0ABA7IW68)
Residues (chain): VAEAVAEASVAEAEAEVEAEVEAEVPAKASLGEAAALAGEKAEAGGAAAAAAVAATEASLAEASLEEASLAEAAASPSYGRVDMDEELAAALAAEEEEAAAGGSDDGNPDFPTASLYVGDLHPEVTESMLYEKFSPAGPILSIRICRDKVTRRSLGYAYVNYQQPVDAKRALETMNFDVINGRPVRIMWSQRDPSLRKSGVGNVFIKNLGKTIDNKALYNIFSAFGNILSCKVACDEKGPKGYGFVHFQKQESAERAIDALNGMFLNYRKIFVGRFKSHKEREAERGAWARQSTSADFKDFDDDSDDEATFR
| Oligonucleotide | 7-mer Z-score |
| --- | --- |
| GCAAGUC | -0.338 |
| GGCGCCG | -0.284 |
| UACGUAG | -0.108 |
| GUAUCAU | -0.115 |

Block 3 — technique: protein-binding microarray; molecule type: double-stranded DNA, one strand shown; matrix: in vitro; tested at: 0.8 µM; notes: whole 60-bp probe, no competitor; direction: higher = stronger binding
Target: Centromere-binding protein 1, full length, N-terminal tag (CBF1, Saccharomyces cerevisiae, UniProt P17106, residues 1-351)
Sequence of UniProt P17106 (whole entry, looked up): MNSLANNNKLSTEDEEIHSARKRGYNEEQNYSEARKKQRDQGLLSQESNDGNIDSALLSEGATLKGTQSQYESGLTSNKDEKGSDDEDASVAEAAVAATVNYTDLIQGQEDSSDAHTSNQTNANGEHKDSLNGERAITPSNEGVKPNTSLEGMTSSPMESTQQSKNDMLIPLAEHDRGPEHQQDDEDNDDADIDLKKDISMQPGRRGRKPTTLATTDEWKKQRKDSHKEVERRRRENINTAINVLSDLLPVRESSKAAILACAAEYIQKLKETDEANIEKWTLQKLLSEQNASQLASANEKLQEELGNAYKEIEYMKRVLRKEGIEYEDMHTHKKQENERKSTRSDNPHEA
| Oligonucleotide | fluorescence intensity |
| --- | --- |
| GAAGAAATTTCCCCTGACGTGTTGGTGTATAAGTAGGTCTTGATTCGCTTGACGCTGCTG | 547 a.u. |
| GAAGAGTAAACAATCCTGATGCTGCAAATGCGTTAGGTCTTGATTCGCTTGACGCTGCTG | 535 a.u. |
| TGTACGAAGCTATTGTACGTGTGTATAGTAGTTAGGGTCTTGATTCGCTTGACGCTGCTG | 531 a.u. |
| GAACGTTGGAGCCATCTCCTGAATTCCATTTTATAGGTCTTGATTCGCTTGACGCTGCTG | 473 a.u. |

Other studies, line by line
| Molecule | target | assay | test system | conditions | scale | measurement | result |
| --- | --- | --- | --- | --- | --- | --- | --- |
| PhoQ, residues 284 288 289 292 302 303 SSCLAV | PhoP, residues 12 14 15 18 19 LYHSL (Escherichia coli, UniProt P23836) | Sort-seq, item: YFP reporter | E. coli | PhoQ-PhoP variant library, together with: 10 µM Mg2+ | reference: high Mg2+ state, higher = stronger signaling | fold induction | 5.3 |

A few entries again (block 1):
| Oligonucleotide | E-score |
| --- | --- |
| GGCAGCGA | 0.103 |
| CACAATAG | -0.0477 |
